Results of several laboratories.
Protocols differ between the studies behind these lines. Several values in a cell are separate wells, animals, samples, runs or records. ± marks the error that the study gave.

CCN(CC)CCNC(=O)c1ccc(-c2noc(C(F)(F)F)n2)cc1
IC50 (HDAC; enzyme activity, inhibitor; CAL-27; 18 h, together with: Boc-Lys(ε-Ac)-AMC substrate): 3.98 ± 1.1 µM

Cl.NCCC[C@H](N)C(=O)O
normalized MyBP-C/MYH ratio (MyBP-C and MYH; iPSC-derived cardiomyocytes (human); reference: plate): 20.7%

COc1cnc(Nc2cccc(S(N)(=O)=O)c2)nc1N1CCN(c2ccccc2)CC1
percent of control (human FLT3 ITD; binding, KINOMEscan; 1000 nM; lower = stronger binding): 78%

C#Cc1cc(-c2cc(Nc3nc(N[C@@H](C)c4ccc(F)cn4)ncc3Cl)n[nH]2)ccc1C=O
inhibition (SRM kinase fusion, human; kinase activity, inhibitor; 0.2 µM): 35% and 33.2%

OC[C@H]1O[C@@H](Oc2cc3c4c(c2)[C@@H]([C@@H]2c5cc(O)cc6c5[C@@H](c5cc(O)cc(O)c5[C@H]2c2ccc(O)cc2)[C@H](c2ccc(O)cc2)O6)[C@H](c2ccc(O)cc2)c2c(O)cc(O)cc2[C@H]4[C@H](c2ccc(O)cc2)O3)[C@H](O)[C@@H](O)[C@@H]1O
decrease in inhibitory capacity (human pancreatic and salivary alpha-amylase; inhibitor; concentration not given; reference: (−)-hopeaphenol): ~50%

C/C=C(/C)C(=O)OC[C@H]1[C@@H](Cc2ccc(C(F)(F)F)cc2)CO[C@@H]1c1ccccc1
IC50 (NF-κB; reporter gene; HEK293/NF-κB-luc; 4 h, together with: TNFα 2 ng/mL): ≥ 20 µM

Oc1ccccc1-c1n[nH]cc1-c1ccnc2ccccc12
log2 fold change (ENV7 (Candida albicans); kinase binding, MIB/MS competition; Candida albicans lysate; 1 µM; reference: DMSO): 0.05

NCCCOc1cc(NC(=O)c2cc(OCCN)cc(C(=O)Nc3cc(OCCCN)c4ccccc4n3)n2)nc2ccccc12
ΔTm (K-ras G-quadruplex DNA; FRET melting; 1 µM, pH 7.4, together with: 60 mM potassium): 29.9 ± 0.9 K

Nc1cc(COc2c(Cl)cc(C[C@H](N)C(=O)O)cc2Cl)c2oc(-c3ccccc3)nc2c1
L-leucine uptake (B0AT1, LAT1, ASCT2; radiolabelled uptake; CHO-BC cells; 3 µM, with Na+, together with: L-[14C]leucine, GPNA 3 mM): 59.9 nmol/6 min/mg protein and 63 nmol/6 min/mg protein and 56.8 nmol/6 min/mg protein

C/C=C(/C)C(=O)OC[C@H]1[C@@H](Cc2ccc(C(F)(F)F)cc2)CO[C@@H]1c1ccc(OC)c(OC)c1
IC50 (NF-κB; reporter gene; HEK293/NF-κB-luc; 4 h, together with: TNFα 2 ng/mL): ≥ 20 µM

O=C(Nc1cc(OCCN2CCCC2)c2ccccc2n1)c1cc(OCc2ccc(F)cc2)cc(C(=O)Nc2cc(OCCN3CCCC3)c3ccccc3n2)n1
ΔTm (K-ras G-quadruplex DNA; FRET melting; 1 µM, pH 7.4, together with: 60 mM potassium): 3.2 ± 0.4 K

CCCC(CCC)c1nc2c(Nc3ccc(C#CCCCCCCCCN)cc3)nc3ccccc3c2[nH]1
affinity (GABAA receptor; PDSP screening): inactive

CC[C@@H]1[C@H](F)C(=O)N[C@@H]1COc1nccc2cc(C(N)=O)c(OC)cc12
inhibition (CK1 delta and epsilon; ATP-site probe binding, inhibitor, ActivX ATP probe profiling; THP-1 cell lysate; 0.2 mM, probe site Lys2): 53%

COc1ccc(F)cc1C(=O)NCc1ccc(-c2nn([C@@H](C)C(F)(F)F)c(N)c2C(N)=O)cc1
IC50 (MEK1/MEK2 human; ERK1/2 phosphorylation; A-375): 3.79 ± 1.31 µM

CN(C)CCOc1cc(NC(=O)c2cc(Cl)cc(C(=O)Nc3cc(OCCN(C)C)c4ccccc4n3)n2)nc2ccccc12
ΔTm (K-ras G-quadruplex DNA; FRET melting; 1 µM, pH 7.4, together with: 60 mM potassium): 10.3 ± 0.5 K

CC(=O)c1nn(CC(=O)N2C[C@H](F)C[C@H]2C(=O)Nc2cccc(Br)n2)c2ccc(-c3cnc(C)nc3)cc12
inhibition (trypsin (human); enzyme activity; human pancreas; 10 µM): 0.1%

C[C@]12O[C@H](C[C@]1(O)CO)n1c3ccccc3c3c4c(c5c6ccccc6n2c5c31)CNC4=O
viability (HBL-1; 0.5 µM, 120 h): 5.27%

CC(Nc1nc(N2CCCC2)nc2ccccc12)c1ccccc1 (stereo not drawn)
cells with nuclear reporter (transportin-1/2; FUS nuclear import, high content imaging; HeLa Kyoto reporter; 0.32 µM, 2 h): 96.3%

O=C(Nc1cc(OCCN2CCCC2)c2ccccc2n1)c1cc(OCCN2CCCC2)cc(C(=O)Nc2cc(OCCN3CCCC3)c3ccccc3n2)n1
ΔTm (K-ras G-quadruplex DNA; FRET melting; 1 µM, pH 7.4, together with: 60 mM potassium): 25.7 ± 0.7 K

C[C@@H]1CCN(c2nccc(-c3cnn4ncccc34)n2)C1
percent of control (human FLT3 ITD; KINOMEscan binding; 1000 nM): 100%

Nc1ccc2cc(C(=O)NS(=O)(=O)c3ccccc3-c3ccccc3)oc2c1
activity class (oestrogen receptor alpha (human); reporter gene; MCF7-MVLN, ER reporter gene; concentration not given): inactive

Cc1ncsc1-c1ccc([C@H](CC(=O)NCCOCCOCCOCCOCCOCCC(=O)N2CCC(Nc3cc(C(=O)NC[C@H](O)CN4CCc5ccccc5C4)ncn3)CC2)NC(=O)[C@@H]2C[C@@H](O)CN2C(=O)[C@@H](NC(=O)C2(F)CC2)C(C)(C)C)cc1
time to degradation (human MEP50; degrader, Western blot; MDA-MB-468; 2 µM): ≤ 12 h

COc1cc2c(NC3CCN(C)CC3)nc(N3CCCN(C)CC3)nc2cc1OCCOCCN(C)C
viability (HBL-1; 0.5 µM, 120 h): 125%

CCN(CC)CCNC(=O)c1c(C)[nH]c(/C=C2\C(=O)Nc3ccc(F)cc32)c1C
inhibition (JNK1α1 (human); kinase activity, inhibitor; 0.3 µM): 0%

CC(C)C[C@H](NC(=O)[C@@H](CCCCNC(=O)CCCCCN1C(=CC=CC=CC2=[N+](C)c3ccc(S(=O)(=O)O)cc3C2(C)C)C(C)(C)c2cc(S(=O)(=O)[O-])ccc21)NC(=O)[C@H](Cc1ccc(O)cc1)NC(=O)[C@H](CO)NC(=O)[C@H](Cc1c[nH]c2ccccc12)NC(=O)[C@H](Cc1c[nH]cn1)NC(=O)[C@@H]1CCC(=O)N1)C(=O)N[C@@H](CCCNC(=N)N)C(=O)N1CCC[C@H]1C(=O)NCC(N)=O
maximal ERK1/2 phosphorylation (GnRH receptor (rat); agonist, Western blot; 10 nM, 5 min; reference: basal): 17 ± 6.7 fold

C#CCOc1cc(C(=O)Nc2cc(OCCN)c3ccccc3n2)nc(C(=O)Nc2cc(OCCN)c3ccccc3n2)c1
ΔTm (K-ras G-quadruplex DNA; FRET melting; 1 µM, pH 7.4, together with: 60 mM potassium): 5.4 ± 0.4 K

c1coc(-c2n[nH]cc2-c2ccnc3ccccc23)c1
log2 fold change (CMK2 (Candida albicans); kinase binding, MIB/MS competition; Candida albicans lysate; 10 µM; reference: DMSO): 0.13

CC(=O)ON=C1C=CC(=C(C#N)c2ccccc2)C=C1
remaining activity (Leishmania donovani TLK; enzyme activity, inhibitor, ADP-Glo; 20 µM, about MIC, together with: ATP 10 µM): 110%

COc1c(O)cc2oc3cc(O)c(CC=C(C)C)c(O)c3c(=O)c2c1CC=C(C)C
normalized MyBP-C/MYH ratio (MyBP-C and MYH; iPSC-derived cardiomyocytes (human); reference: plate): 0.9%

COc1cccc(CNC(=O)C#Cc2cn(Cc3ccc(C(=O)O)cc3)c(=O)[nH]c2=O)c1
remaining MMP-2 activity (MMP-2; inhibitor, colorimetric; 20 µM): 76 ± 21%

NCCOc1cc(NC(=O)c2cc(OCc3c[nH]nn3)cc(C(=O)Nc3cc(OCCN)c4ccccc4n3)n2)nc2ccccc12
ΔTm (K-ras G-quadruplex DNA; FRET melting; 1 µM, pH 7.4, together with: 60 mM potassium): 5.8 ± 0.5 K

COc1cc(-c2cc(-c3ccc(N4CCNCC4)cc3)cnc2N)cc(OC)c1OC
inhibition (human CK2; enzyme activity, inhibitor; 0.1 µM): 8%

CC(C)c1noc2ncc(C(=O)c3ccccc3O)cc12
inhibition (Kv2.1 potassium channel; ion current, inhibitor, whole-cell patch clamp; 10 µM): 0.69% and 2.08% and 2.83% and 4.37% and 5.15%

Some of these lines once more:
C#Cc1cc(-c2cc(Nc3nc(N[C@@H](C)c4ccc(F)cn4)ncc3Cl)n[nH]2)ccc1C=O
inhibition (SRM kinase fusion, human; kinase activity, inhibitor; 0.2 µM): 35% and 33.2%

COc1cc(-c2cc(-c3ccc(N4CCNCC4)cc3)cnc2N)cc(OC)c1OC
inhibition (human CK2; enzyme activity, inhibitor; 0.1 µM): 8%

C/C=C(/C)C(=O)OC[C@H]1[C@@H](Cc2ccc(C(F)(F)F)cc2)CO[C@@H]1c1ccc(OC)c(OC)c1
IC50 (NF-κB; reporter gene; HEK293/NF-κB-luc; 4 h, together with: TNFα 2 ng/mL): ≥ 20 µM
